Literature values, collected from citations in different studies.
Sequence of UniProt Q13976 (whole entry, looked up): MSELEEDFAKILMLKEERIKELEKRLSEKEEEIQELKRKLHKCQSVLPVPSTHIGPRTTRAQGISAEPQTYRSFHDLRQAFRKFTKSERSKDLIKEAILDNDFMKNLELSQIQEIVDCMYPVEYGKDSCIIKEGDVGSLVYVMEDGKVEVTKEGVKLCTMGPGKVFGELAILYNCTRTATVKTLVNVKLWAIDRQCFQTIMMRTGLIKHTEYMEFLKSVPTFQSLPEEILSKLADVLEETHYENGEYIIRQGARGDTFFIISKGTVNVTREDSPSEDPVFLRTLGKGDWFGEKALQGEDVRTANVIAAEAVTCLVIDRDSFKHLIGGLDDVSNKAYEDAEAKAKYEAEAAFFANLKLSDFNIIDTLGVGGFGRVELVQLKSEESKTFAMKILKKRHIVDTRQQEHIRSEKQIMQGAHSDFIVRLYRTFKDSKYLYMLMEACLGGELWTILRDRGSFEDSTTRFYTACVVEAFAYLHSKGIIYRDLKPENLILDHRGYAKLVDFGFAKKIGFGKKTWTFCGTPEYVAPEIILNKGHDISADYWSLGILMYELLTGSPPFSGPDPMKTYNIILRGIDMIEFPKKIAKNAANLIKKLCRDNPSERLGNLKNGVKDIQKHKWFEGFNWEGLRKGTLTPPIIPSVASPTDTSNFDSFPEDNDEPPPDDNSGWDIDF

| SMILES | target or system | test | system | setting | how to read | endpoint | result |
| --- | --- | --- | --- | --- | --- | --- | --- |
| c1ccc2c(c1)ccc1ccccc12 | – | – | – | experimental mean or OPERA estimate | – | log Kow | 4.46 |
| C#C[C@]1(O)CC[C@H]2[C@@H]3CCc4cc(O)ccc4[C@H]3CC[C@@]21C | – | – | n-octanol/water | – | – | log Kow | 4.15 |
| C[Si](C)(C)O[Si](C)(C)O[Si](C)(C)O[Si](C)(C)O[Si](C)(C)C | – | – | – | – | – | log Kow | 9.41 |
| COc1ccc2c(c1)c(CC(=O)O)c(C)n2C(=O)c1ccc(Cl)cc1 | – | – | – | – | – | log Kow | 4.27 |
| O=C(O)CN1CCN(CC(=O)O)CCN(Cc2cccc(C(=O)O)n2)CC1 | – | – | free ligand | second carboxylate protonation | – | log Ka | 2.95 |
| O=C(O)CN(CC(=O)O)[C@H]1CCCC[C@@H]1N(CC(=O)O)Cc1ccccn1 | – | measured: Mn2+ | – | – | – | log K MnL | 14.1 |
| O=c1[nH]c2ccccc2s1 | – | – | – | – | – | log Kow | 1.78 |
| C[Si](C)(C)O[Si](C)(C)C | – | vapour pressure over solubility | – | 25 °C | – | log KAW | 2.6 |
| C[Si]1(C)O[Si](C)(C)O[Si](C)(C)O[Si](C)(C)O[Si](C)(C)O[Si](C)(C)O1 | – | – | – | – | – | log Kow | 8.87 |
| CC(C)(Oc1ccc(Cl)cc1)C(=O)O | – | – | – | – | – | log Kow | 2.57 |
| CCC(C)n1ncn(-c2ccc(N3CCN(c4ccc(OCC5COC(Cn6cncn6)(c6ccc(Cl)cc6Cl)O5)cc4)CC3)cc2)c1=O (centres unmarked) | – | – | – | – | – | log P (octanol/water) | 4.47 |
| C[Si]1(C)O[Si](C)(C)O[Si](C)(C)O[Si](C)(C)O[Si](C)(C)O1 | – | – | dry 1-octanol/air | 25 °C | – | log KOA | 4.95 |
| O=C(O)CN1CCNCCN(CC(=O)O)CCNCC1 | – | – | 0.1 M KCl | – | – | log KH2 | 9.75 |
| C[C@]12C[C@H](O)[C@H]3[C@@H](CCC4=CC(=O)CC[C@@]43C)[C@@H]1CC[C@@H]2C(=O)CO | – | – | – | – | – | log KOW | < 2 |
| Nc1cc(C(F)(F)F)c(-c2nc(N3CCOCC3)nc(N3CCOCC3)n2)cn1 | cGMP-dependent protein kinase 1 (PRKG1, Homo sapiens, UniProt Q13976) | enzyme activity | – | 10 µM | baseline: untreated | remaining activity | 100% |
| C[Si](C)(C)O[Si](C)(C)O[Si](C)(C)C | – | – | dry 1-octanol/air | 25 °C | – | log KOA | 3.77 |
| c1ccc2c(c1)ccc1c3ccccc3ccc21 | – | – | – | experimental mean | – | log Kow | 5.81 |

Some of these lines once more:
| SMILES | target or system | test | system | setting | how to read | endpoint | result |
| --- | --- | --- | --- | --- | --- | --- | --- |
| c1ccc2c(c1)ccc1c3ccccc3ccc21 | – | – | – | experimental mean | – | log Kow | 5.81 |
| c1ccc2c(c1)ccc1ccccc12 | – | – | – | experimental mean or OPERA estimate | – | log Kow | 4.46 |
| C[Si](C)(C)O[Si](C)(C)O[Si](C)(C)C | – | – | dry 1-octanol/air | 25 °C | – | log KOA | 3.77 |
